Measured values of several laboratories.
Lines come from different studies, so protocols differ. Numbers after ± are the reported error.
CNR1: Cannabinoid receptor 1 (CNR1, Homo sapiens, UniProt P21554)
Chain of UniProt P21554 (whole entry, looked up): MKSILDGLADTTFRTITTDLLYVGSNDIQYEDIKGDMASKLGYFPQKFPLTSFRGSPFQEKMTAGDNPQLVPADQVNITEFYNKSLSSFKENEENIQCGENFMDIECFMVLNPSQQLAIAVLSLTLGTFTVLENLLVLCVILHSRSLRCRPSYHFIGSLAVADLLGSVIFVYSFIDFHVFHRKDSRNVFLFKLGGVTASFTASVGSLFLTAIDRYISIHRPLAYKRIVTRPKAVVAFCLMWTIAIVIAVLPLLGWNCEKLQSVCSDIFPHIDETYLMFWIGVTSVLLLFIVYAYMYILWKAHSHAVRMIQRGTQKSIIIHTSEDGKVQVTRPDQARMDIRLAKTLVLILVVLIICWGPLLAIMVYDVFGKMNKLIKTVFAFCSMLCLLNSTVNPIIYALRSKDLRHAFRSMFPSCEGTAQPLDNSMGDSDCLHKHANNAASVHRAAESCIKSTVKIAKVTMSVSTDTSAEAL
Kir3.1/Kir3.4: Kir3.1/Kir3.4 (Homo sapiens, UniProt P48544+P48549)
Chain of UniProt P48544 (whole entry, looked up): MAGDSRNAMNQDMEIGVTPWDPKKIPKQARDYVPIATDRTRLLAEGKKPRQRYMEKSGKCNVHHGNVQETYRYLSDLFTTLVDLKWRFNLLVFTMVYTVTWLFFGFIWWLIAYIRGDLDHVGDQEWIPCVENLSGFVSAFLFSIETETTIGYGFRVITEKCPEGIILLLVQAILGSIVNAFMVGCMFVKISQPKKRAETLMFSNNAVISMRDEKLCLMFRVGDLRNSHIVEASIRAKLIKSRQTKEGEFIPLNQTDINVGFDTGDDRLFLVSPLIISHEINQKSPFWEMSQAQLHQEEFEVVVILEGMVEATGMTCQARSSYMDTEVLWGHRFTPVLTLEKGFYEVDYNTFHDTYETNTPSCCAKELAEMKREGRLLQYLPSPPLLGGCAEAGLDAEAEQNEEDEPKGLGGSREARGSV
Chain of UniProt P48549 (whole entry, looked up): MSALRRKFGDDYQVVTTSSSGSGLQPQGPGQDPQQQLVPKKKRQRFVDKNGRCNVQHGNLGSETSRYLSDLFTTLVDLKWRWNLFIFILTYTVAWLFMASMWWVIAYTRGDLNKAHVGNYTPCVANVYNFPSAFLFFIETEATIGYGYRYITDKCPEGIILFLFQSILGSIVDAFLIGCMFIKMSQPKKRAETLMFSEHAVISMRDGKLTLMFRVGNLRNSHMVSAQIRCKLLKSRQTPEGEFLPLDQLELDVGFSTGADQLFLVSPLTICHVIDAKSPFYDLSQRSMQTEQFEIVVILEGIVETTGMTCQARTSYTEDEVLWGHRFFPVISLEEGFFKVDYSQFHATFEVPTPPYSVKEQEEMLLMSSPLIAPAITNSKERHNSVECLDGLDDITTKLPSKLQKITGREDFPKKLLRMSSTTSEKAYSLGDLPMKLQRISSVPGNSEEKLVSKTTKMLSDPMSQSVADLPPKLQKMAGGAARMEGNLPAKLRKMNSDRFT
Chain of UniProt Q969F8 (whole entry, unmodified, looked up): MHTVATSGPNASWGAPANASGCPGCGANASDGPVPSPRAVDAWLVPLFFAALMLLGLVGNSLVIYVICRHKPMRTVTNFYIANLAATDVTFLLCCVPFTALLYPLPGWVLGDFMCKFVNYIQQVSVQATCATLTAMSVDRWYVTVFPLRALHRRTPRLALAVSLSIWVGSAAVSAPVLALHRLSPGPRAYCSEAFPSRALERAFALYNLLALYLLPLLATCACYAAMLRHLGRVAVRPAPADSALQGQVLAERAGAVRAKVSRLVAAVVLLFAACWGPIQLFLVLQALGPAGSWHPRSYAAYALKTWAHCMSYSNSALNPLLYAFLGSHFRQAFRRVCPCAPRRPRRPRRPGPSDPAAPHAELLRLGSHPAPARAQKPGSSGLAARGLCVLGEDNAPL
Chain of UniProt P25103 (whole entry, unmodified, looked up): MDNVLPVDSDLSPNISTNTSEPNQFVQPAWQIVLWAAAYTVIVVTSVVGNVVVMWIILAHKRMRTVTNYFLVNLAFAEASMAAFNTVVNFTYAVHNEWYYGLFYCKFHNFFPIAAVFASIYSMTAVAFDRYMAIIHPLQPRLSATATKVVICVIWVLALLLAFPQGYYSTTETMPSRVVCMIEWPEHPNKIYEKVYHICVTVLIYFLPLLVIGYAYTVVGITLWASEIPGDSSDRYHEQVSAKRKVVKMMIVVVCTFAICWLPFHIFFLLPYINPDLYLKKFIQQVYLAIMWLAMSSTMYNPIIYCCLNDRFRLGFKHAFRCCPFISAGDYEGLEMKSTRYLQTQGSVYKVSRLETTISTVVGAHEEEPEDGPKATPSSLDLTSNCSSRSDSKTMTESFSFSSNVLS
Chain of UniProt Q8TDS7 (whole entry, unmodified, looked up): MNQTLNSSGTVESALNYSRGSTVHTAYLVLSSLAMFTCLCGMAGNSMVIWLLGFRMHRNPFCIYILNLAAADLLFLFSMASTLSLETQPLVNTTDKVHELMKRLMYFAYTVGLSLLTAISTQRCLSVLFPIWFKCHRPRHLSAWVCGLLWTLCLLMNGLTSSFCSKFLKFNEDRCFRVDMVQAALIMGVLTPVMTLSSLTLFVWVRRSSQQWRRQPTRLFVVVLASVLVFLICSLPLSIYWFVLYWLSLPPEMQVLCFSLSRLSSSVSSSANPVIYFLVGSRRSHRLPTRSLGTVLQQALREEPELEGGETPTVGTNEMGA
Chain of UniProt Q9NSD7 (whole entry, unmodified, looked up): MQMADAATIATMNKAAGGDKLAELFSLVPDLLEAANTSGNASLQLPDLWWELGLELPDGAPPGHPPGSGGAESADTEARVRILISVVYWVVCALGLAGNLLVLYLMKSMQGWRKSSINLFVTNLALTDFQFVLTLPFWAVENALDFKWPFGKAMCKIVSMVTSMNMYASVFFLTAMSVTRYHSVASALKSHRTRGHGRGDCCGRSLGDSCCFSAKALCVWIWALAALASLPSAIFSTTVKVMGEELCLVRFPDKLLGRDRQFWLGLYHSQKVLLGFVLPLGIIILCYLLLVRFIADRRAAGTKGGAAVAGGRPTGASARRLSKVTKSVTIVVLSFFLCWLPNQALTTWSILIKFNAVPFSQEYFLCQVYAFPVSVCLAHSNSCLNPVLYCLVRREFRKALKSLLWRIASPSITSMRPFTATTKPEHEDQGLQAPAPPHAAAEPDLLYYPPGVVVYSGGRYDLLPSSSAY

SMILES | target | test | test system | setting | how to read | Emax [%]
CCOC(=O)C(CC)(CCCSCCOCCOCCOCCOCCNc1ccc([N+](=O)[O-])c2nonc12)NC(=O)c1ccc(C2CC2)c(Cc2ccc(F)cc2)n1 (stereo not shown) | CNR1 | cAMP, agonist |  |  |  | 110
O=C(COc1ccc(Cl)cc1Cl)Nc1cc(C2CC2)nn1C1CCOCC1 | Kir3.1/Kir3.4 | thallium flux, activator | HEK293 |  | baseline: standard compound | 72
CC[C@H](C)[C@@H]1NC(=O)[C@H](Cc2ccccc2)NC(=O)[C@H](CCC(=O)O)NC(=O)[C@H](CCCNC(=N)N)NC(=O)CNC(=O)[C@@H](NC(=O)[C@H](CC(C)C)NC(=O)[C@H](CCCNC(=N)N)NC(=O)[C@@H](NC(=O)CNC(=O)[C@H](Cc2ccc(O)cc2)NC(=O)[C@@H]2CCCN2C(=O)[C@H](C)NC(=O)[C@H](C)NC(=O)[C@@H](N)CCCNC(=N)N)C(C)C)CSSC[C@@H]2NC(=O)[C@@H](NC(=O)[C@H](CO)NC(=O)[C@H](CO)NC(=O)[C@H](CO)NC(=O)[C@H](CC(C)C)NC(=O)CNC(=O)[C@H](C)NC(=O)[C@H](CC(C)C)NC(=O)[C@@H](NC(=O)[C@@H](N)CC(=O)O)C(C)C)CSSC[C@H](NC(=O)CNC(=O)[C@H](Cc3c[nH]c4ccccc34)NC(=O)[C@H](CCCCN)NC2=O)C(=O)N[C@@H](CO)C(=O)N[C@@H](CCCCN)C(=O)N[C@@H](CO)C(=O)N[C@@H](CCC(=O)O)C(=O)N[C@@H]([C@@H](C)CC)C(=O)N[C@@H](CO)C(=O)N[C@@H](CO)C(=O)N[C@@H](CC(C)C)C(=O)N[C@H](C(=O)O)CSSC[C@@H](C(=O)NCC(=O)NCC(=O)N[C@@H](CO)C(=O)N[C@@H](CCCNC(=N)N)C(=O)N[C@@H](Cc2c[nH]c3ccccc23)C(=O)O)NC(=O)[C@H]([C@@H](C)O)NC(=O)[C@H](Cc2ccccc2)NC(=O)[C@H]([C@@H](C)CC)NC(=O)[C@H](C(C)C)NC(=O)[C@H](C)NC(=O)[C@H](CCCNC(=N)N)NC1=O | Relaxin-3 receptor 1 (RXFP3, Homo sapiens, UniProt Q9NSD7, M166A) |  | HEK-293T |  | baseline: wild type | 51.1 ± 3.78
CNC(=N)NCCC[C@H](NC(=O)[C@H](CC(C)C)NC(=O)NNC(=O)[C@H](Cc1ccccc1)NC(=O)[C@@H](NC(=O)[C@H](CC(N)=O)NC(=O)[C@@H]1C[C@@H](O)CN1C(=O)[C@@H](Cc1ccc(O)cc1)NC(C)=O)[C@@H](C)O)C(=O)N[C@@H](Cc1c[nH]c2ccccc12)C(N)=O | KiSS-1 receptor (KISS1R, Homo sapiens, UniProt Q969F8, H181A) | inositol phosphate, agonist | HEK293 |  |  | 95
CSCC[C@H](NC(=O)[C@H](CC(C)C)NC(=O)CNC(=O)[C@H](Cc1ccccc1)NC(=O)[C@H](Cc1ccccc1)NC(=O)[C@@H](N)CCC(N)=O)C(N)=O | Substance-P receptor (TACR1, Homo sapiens, UniProt P25103, N89D) | agonist |  | concentration not given |  | 96 ± 18
COc1cc(C2C(NC(=O)c3ccc(NC(=O)OC(C)(C)C)cc3)(C(=O)O)C(c3ccc(OC(=O)c4cccs4)c(OC)c3)C2(NC(=O)c2ccc(NC(=O)OC(C)(C)C)cc2)C(=O)O)ccc1OC(=O)c1cccs1 (stereo not shown) | Glucagon-like peptide 1 receptor (GLP1R, Homo sapiens, UniProt P43220, L388A) | cAMP accumulation, agonist |  | receptor mutant | baseline: wild type | 0.28 ± 8.16
CCc1cc(NC(=O)COc2ccc(C(F)(F)F)cc2C(F)(F)F)n(C2CCC(F)(F)CC2)n1 | Kir3.1/Kir3.4 | thallium flux, activator | HEK293 |  | baseline: standard compound | 48
CCOC(=O)C(CC)(CCCSCCOCCOCCOCCNc1ccc([N+](=O)[O-])c2nonc12)NC(=O)c1ccc(C2CC2)c(Cc2ccc(F)cc2)n1 (stereo not shown) | CNR1 | cAMP, agonist |  |  |  | 96
O=C(COc1cc(Cl)ccc1Cl)Nc1cc(C2CC2)nn1C1CCOCC1 | Kir3.1/Kir3.4 | thallium flux, activator | HEK293 |  | baseline: standard compound | 68
CC(C)(C(=O)N1CCC(Nc2nc3c(c(=O)[nH]2)CCCC3)CC1)c1ccc(Cl)cc1 | MRGPRD (Homo sapiens, UniProt Q8TDS7, N157A) | miniGq recruitment, agonist, BRET | HEK293T | N157A mutant | baseline: wild type | 129 ± 2.6

A few entries again:
SMILES | target | test | test system | setting | how to read | Emax [%]
CCc1cc(NC(=O)COc2ccc(C(F)(F)F)cc2C(F)(F)F)n(C2CCC(F)(F)CC2)n1 | Kir3.1/Kir3.4 | thallium flux, activator | HEK293 |  | baseline: standard compound | 48
